Experimental data collected from several papers.
Lines come from different studies, so protocols differ. Values joined by “and” are separate records of one study, mostly repeats; a detail may differ. ± marks the error that the study gave.
Disks large homolog 4 PDZ3 domain: Disks large homolog 4, PDZ3 domain (Homo sapiens, UniProt P78352)
DCPS: m7GpppX diphosphatase (DCPS, Homo sapiens, UniProt Q96C86)
ALB: Albumin (ALB, Bos taurus, UniProt P02769)
Itpr1 del318-332/R504Q N-terminal region: Inositol 1,4,5-trisphosphate-gated calcium channel ITPR1, N-terminal region (Itpr1, Rattus norvegicus, UniProt P29994, del318-332/R504Q)
T1: dsDNA hairpin, hairpin; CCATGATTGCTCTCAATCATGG

CC(C)[C@H](NC(=O)[C@@H]1CCC(=O)NCCC(=O)NCCCC[C@H](NC(=O)[C@H](CCCCN)NC(=O)[C@H](Cc2ccc(O)cc2)NC(=O)[C@H](CC(N)=O)NC(=O)[C@H](CCCCN)NC(=O)[C@@H](N)CSSC[C@H](NC(=O)[C@H](CCCNC(=N)N)NC(=O)[C@H](CCCNC(=N)N)NC(=O)[C@H](CCCNC(=N)N)NC(=O)[C@H](CCCNC(=N)N)NC(=O)[C@H](CCCNC(=N)N)NC(=O)[C@H](CCCNC(=N)N)NC(=O)[C@@H](N)CCCNC(=N)N)C(=O)O)C(=O)N[C@@H]([C@@H](C)O)C(=O)N1)C(=O)O  kon (Disks large homolog 4 PDZ3 domain; binding, surface plasmon resonance; pH 7.5, 25 °C): 6000 M⁻¹ s⁻¹
Cn1cncn1.[Ru+2].c1cc(-c2ccc3ccccc3n2)nc(-c2ccc3ccccc3n2)c1.c1ccc2cc3nc4c5cccnc5c5ncccc5c4nc3cc2c1  remaining activity (Cathepsin B (Ctsb, Mus musculus, UniProt P10605); enzyme activity; 4T1, cell lysate; 1 µM, 4 h, dark, then 1 h, together with: Z-Arg-Arg-AMC; relative to: vehicle): 118 ± 4%
Cc1ccccc1-c1cc(N2CCN(CCCN3C(=O)C=CC3=O)CC2)ccc1N(C)C(=O)C(C)(C)c1cc(C(F)(F)F)cc(C(F)(F)F)c1  inhibition rate constant (TACR1 (Homo sapiens, UniProt P25103); antagonist, BRET; HEK293T; 10 µM, together with: substance P, added 5 min before): 0.11 ± 0.02 min⁻¹
BP(=O)(OP(=O)([O-])OC[C@H]1O[C@@H](n2c[n+](C)c3c(O)nc(N)nc32)[C@H](O)[C@@H]1O)OP(=O)(O)OC[C@H]1O[C@@H](n2cnc3c(=O)[nH]c(N)nc32)[C@H](O)[C@@H]1O (stereo partly shown)  cleavage (DCPS; hydrolysis by DcpS, substrate, HPLC; 15 µM, 10 min, pH 7.6, 20 °C, enzyme 200 nM): 3%
CN1CCN(CC(=O)N2N=C3/C(=C/c4ccccc4)CCCC3C2c2ccccc2)CC1 (mixture of isomers)  maximal activation (ALOX15 (Homo sapiens, UniProt P16050); enzyme activity, activator; together with: docosahexaenoic acid 10 µM): 26%
N=C(N)NCCC[C@H](NC(=O)[C@H](CC(=O)O)NC(=O)[C@@H]1CSCCCC(=O)NCC(=O)N[C@@H](Cc2c[nH]cn2)C(=O)N[C@H](Cc2ccccc2)C(=O)N[C@@H](CCCNC(=N)N)C(=O)N[C@H](Cc2c[nH]c3ccccc23)C(=O)N1)C(=O)N[C@@H](Cc1ccccc1)C(=O)NCC(N)=O  functional activity (MC4R (Homo sapiens, UniProt P32245); cAMP accumulation; HEK293 expressing MC4R; concentration not given): inactive
C[n+]1cn([C@@H]2O[C@H](COP(=O)(O)OP(=O)([O-])C(F)(F)P(=O)(O)O)[C@@H](O)[C@H]2O)c2nc(N)nc(O)c21  hydrolysis (DCPS; substrate, HPLC; 0.04 mM, 60 min, 37 °C): 7% and 6.9%
CCc1nc2cc3ccccc3cc2cc1C(=O)N1CCC[C@H]1C(=O)N[C@@H](C/C=C/C[C@H](NC(=O)[C@@H]1CCCN1C(=O)c1cc2cc3ccccc3cc2nc1CC)C(=O)N[C@@H](CCCCN)C(=O)NCCCN)C(=O)N[C@@H](CCCCN)C(=O)NCCCN  residence time ((CUG)4 RNA; SPR): 704 s
CC(C)CC(NC(=O)C(NC(=O)NC(C(=O)O)C(C)C)C1CCNC(=N)N1)C(=O)NCCCNC(C(=O)O)C(OC1OC(CN)C(O)C1O)C1OC(n2ccc(=O)[nH]c2=O)C(O)C1O (stereo not shown)  binding stoichiometry (mraY (Aquifex aeolicus, UniProt O66465, N255A); ITC; concentration not given, N255A mutant): 0.68 ± 0.06 sites
N=C(N)c1ccc(-c2ncc(-c3cnc(-c4ccc(C(=N)N)cc4)s3)s2)cc1  melting temperature shift (T1, dsDNA hairpin, hairpin; UV melting; 6 µM, pH 6.25, Na+ 100 mM; relative to: target alone, higher = more stabilisation): 14.1 °C
COC(=O)c1cnc(-c2cnccn2)cc1C(=O)OC.COC(=O)c1cnc(-c2cnccn2)cc1C(=O)OC.O.O.O.O=S(=O)([O-])C(F)(F)F.O=S(=O)([O-])C(F)(F)F.[Cu+2]  binding constant (ALB; fluorescence quenching): 581000 M⁻¹
NS(=O)(=O)c1ccc(N2N=C(C(F)(F)F)CC2c2ccc(F)cc2F)cc1 (stereo not shown)  IC80 (Cyclooxygenase-2 (Canis lupus familiaris, UniProt Q8SPQ9); PGE2 formation, inhibitor; dog whole blood; 24 h, together with: LPS): 64.6 µM
O=C(Nc1ccc(N2C(=O)c3ccc(Cl)cc3C2=O)c(Cl)c1)c1ncccc1Cl  Emax (GRM1 (Homo sapiens, UniProt Q13255); calcium signal, positive allosteric modulator; T-REx-293): 86%
O=S(=O)(Nc1cscn1)c1c(F)cc(NCc2c(F)ccc(F)c2CN2CCC2)cc1F  IC50 ratio (SCN8A (Homo sapiens, UniProt Q9UQD0); ion current, inhibitor, automated patch clamp; relative to: resting (-120 mV) over inactivated state): > 1000 fold
CC[C@H](C)[C@H](NC(=O)[C@H](C)NC(=O)[C@@H]1CC[C@@H](O)CNC(=O)C[C@H](NC(=O)[C@H](CCCNC(=N)N)NC(=O)[C@H](CCCNC(=N)N)NC(=O)[C@@H](NC(=O)[C@H](CCCNC(=N)N)NC(C)=O)[C@@H](C)CC)C(=O)N[C@@H](CCC(=O)O)C(=O)N[C@@H](Cc2ccc(O)cc2)C(=O)N[C@@H](CC(C)C)C(=O)N1)C(=O)N[C@@H](CCC(N)=O)C(N)=O  -TΔS difference (Disks large homolog 4, GK domain (Homo sapiens, UniProt P78352); binding, isothermal titration calorimetry; GK domain; relative to: linear peptide): -4.5 kcal/mol
Nc1nnc(-c2ccccc2O)cc1N1CC2CCC(C1)N2c1ccnc(C#CCCN2CCCCCC2)c1  Dmax (SMARCA2 (Homo sapiens, UniProt P51531); degrader, immunofluorescence; SW1573; 20 h): ~95%
COc1cc(N2CCN(C(=O)C3CCCN3)CC2)ccc1Nc1ncc(Cl)c(Nc2ccccc2P(C)(C)=O)n1 (stereo not shown)  protein level (ALK tyrosine kinase receptor/Echinoderm microtubule-associated protein-like 4 (Homo sapiens, UniProt Q9HC35+Q9UM73); item: ALK tyrosine kinase receptor/Echinoderm microtubule-associated protein-like 4; nude mice, H3122 xenograft, tumour; oral, 25 mg/kg, 48 h): decreased
O=C1/C=C/C(=O)N[C@@H](CC2CCCCC2)C(=O)N[C@@H](Cc2ccc(F)cc2)C(=O)N[C@@H](Cc2ccc([N+](=O)[O-])cc2)C(=O)NCCC[C@@H](C(=O)O)N1  IC50 ratio (SRC (Gallus gallus, UniProt P00523, C277Q); enzyme activity, inhibitor; relative to: C277Q mutant over wild type): 5 fold
CC1=C(/C=C/C(C)=C/C=C/C(C)=C/C=C/C=C(C)/C=C/C=C(\C)C=O)C(C)(C)CCC1  log association constant (Prosaposin, Saposin B (PSAP, Homo sapiens, UniProt P07602); binding, tyrosine fluorescence quenching; pH 5.5, 25 °C, 40 µM saposin B, 50 mM phosphate): 4.62
O=C(O)CCC(NC(=O)NC(CCCCNC(=O)C(Cc1ccc2ccccc2c1)NC(=O)C1CCC(CNC(=O)CCC(C(=O)O)N2CCN(CC(=O)O)CCN(CC(=O)O)CC2)CC1)C(=O)O)C(=O)O (stereo not shown)  internalized fraction (FOLH1 (Homo sapiens, UniProt Q04609); LNCaP; 30 nM, 45 min, 37 °C, 177Lu-labelled; relative to: total cell-bound): 48.5 ± 16.4%
CC(C)CNC(=O)[C@@H](NC[C@@H](O)[C@H](Cc1ccccc1)NC(=O)c1cc(C(=O)N[C@H](C)c2ccccc2)cc(N(C)S(C)(=O)=O)c1)[C@H](C)O  potency ratio (Beta-secretase 2 (BACE2, Homo sapiens, UniProt Q9Y5Z0); FRET enzyme; relative to: compound over reference inhibitor): ~10 fold
CC(=O)N[C@@H](CC(=O)O)C(=O)N[C@H](C(=O)N[C@@H](CCCCN)C(=O)N[C@@H](CC(N)=O)C(=O)N[C@@H](CCN1C(=O)c2ccc(N(C)C)cc2C1=O)C(=O)N[C@@H](CCCCN)C(=O)N[C@@H](CCC(N)=O)C(=O)N[C@H](C(=O)N[C@@H](CO)C(=O)N[C@H](C(=O)O)C(C)C)[C@@H](C)O)[C@@H](C)O  relative fluorescence increase (Disks large homolog 4 PDZ3 domain; PDZ domain binding, fluorescence emission intensity; PSD-95 PDZ3 domain; 4-DMAP-Dab at position -5; relative to: probe without PDZ domain): 48.8
CNc1ccccc1C(=O)O[C@H]1C[C@H](n2cnc3c(N)ncnc32)O[C@@H]1COP(=O)(O)OP(=O)(O)O  dissociation rate constant (Unconventional myosin-Va (Gallus gallus, UniProt Q02440, D297C/G292C/I296C/S293C/V295G); stopped-flow FRET; 10 °C, together with: MgCl2 2 mM): 1.7 ± 0.01 s⁻¹
CO[C@@H]1O[C@H](CO)[C@@H](O[C@H]2O[C@H](CO)[C@@H](OP(=O)(O)O)[C@H](OP(=O)(O)O)[C@H]2O)[C@H]1OP(=O)(O)O  affinity reduction (Itpr1 del318-332/R504Q N-terminal region; [3H]IP3 competition binding; N-terminal fragment; concentration not given, Tris-EDTA medium; relative to: R504Q over wild type): 21 fold
CCC1(CC)C(=O)N(c2cccc(CN3CCN(c4cc(C)nc5ccc(Br)cc45)CC3)c2)C1=O  SILAC ratio (FAP (Homo sapiens, UniProt Q12884); probe labelling, inhibitor, competitive ABPP mass spectrometry; U-937 cell lysate; 10 µM, together with: FP-biotin 10 µM; relative to: DMSO over compound): > 3
O=C(NC[C@@H](Cc1ccc(F)cc1)N1CCC(O)(C(F)(F)F)CC1)C1(c2ccc(Cl)cc2)CCCC1  EC50 fold change (TRPA1 (Homo sapiens, UniProt O75762, V875M); calcium influx, agonist; relative to: V875M mutant over wild type): ~2 fold
COc1ccc(C2(SCC(N)C(=O)O)c3ccccc3CCc3ccccc32)cc1 (stereo not shown)  binding stoichiometry (Kinesin-like protein KIF11, motor domain (KIF11, Homo sapiens, UniProt P52732); ITC; concentration not given, 25 °C): 0.77 ± 0.008
Nc1ncnc2c1ncn2[C@@H]1O[C@H](CO)[C@@H](O[C@H]2O[C@H](CO)[C@@H](OP(=O)(O)O)[C@H](OP(=O)(O)O)[C@H]2O)[C@H]1O  Hill coefficient (Itpr1 del318-332/R504Q N-terminal region; [3H]IP3 competition binding; N-terminal fragment R504Q): 0.8 ± 0.1
CCCCCCCCCCCCCC(=O)Nc1ccccc1SSc1ccccc1NC(=O)CCCCCCCCCCCCC  enthalpy change (ALB; binding, van't Hoff; concentration not given, 298-313 K): -20.1 kcal/mol
[3H]C1CCN(S(=O)(=O)c2cc(Cl)c(OC)cc2Cl)CC1[3H] (stereo not shown)  specific binding (Melanopsin (OPN4, Homo sapiens, UniProt Q9UHM6); CHO cells expressing Opn4, membranes; concentration not given, together with: radioligand 300 pM): 94%
CCCC[C@H](NC(=O)[C@H](CCCCN)NC(=O)[C@H](CCCCN)NC(=O)[C@H](CCCNC(=N)N)NC(=O)[C@H](CCCNC(=N)N)NC(=O)[C@H](CC(N)=O)NC(C)=O)C(=O)N1CCC[C@H]1C(=O)N[C@@H](CCN1C(=O)c2ccc(N(C)C)cc2C1=O)C(=O)N[C@H](C(=O)N[C@@H](CCC(=O)O)C(=O)N[C@@H](CO)C(=O)N[C@@H](CC(=O)O)C(=O)N[C@H](C(=O)O)C(C)C)[C@@H](C)CC  relative fluorescence increase (Disks large homolog 4 PDZ3 domain; PDZ domain binding, fluorescence emission intensity; PSD-95 PDZ3 domain; 4-DMAP-Dab at position -5; relative to: probe without PDZ domain): 35.1
CC(=O)[O-].O.O.O.O.[Ni+2].[O-]c1ccc(Br)cc1C=NCCN1CCOCC1  absorption band blue shift (ALB; binding, UV absorption titration, item: BSA band at 278 nm; pH 7.2, 25 °C; relative to: free BSA): 6 nm
COC(=O)c1cc(O)c2ccccc2c1O  FRET efficiency (Serine/threonine-protein kinase PAK 1, PBD (PAK1, Homo sapiens, UniProt Q13153); HeLa; 20 µM, 1.5 h): decreased
COc1cccc(OC)c1OCCCn1cc(CCCNc2nc3c(c(=O)[nH]2)[n+](C)cn3C2OC(COP(=O)(O)OP(=O)([O-])OP(=O)(O)OCC3OC(n4cnc5c(=O)[nH]c(N)nc54)C(O)C3O)C(O)C2O)nn1 (stereo not shown)  hydrolysis (NUDT16 (Homo sapiens, UniProt Q96DE0); cap hydrolysis, substrate, item: analog-capped RNA; concentration not given, 30 min): 2.74%
COc1c(Cl)c(/C=C(\C)C(=O)O)c(OC)c2ccccc12  reporter activity (HIF1α; NF90-8 and Pa03C; concentration not given, 24 h, 1% O2): no effect
[11CH3]Nc1ccc(-c2nc3ccc(O)cc3o2)cn1  distribution volume ratio (APP (Homo sapiens, UniProt P05067); binding, PET, reference Logan; control subjects, prefrontal cortex; relative to: cerebellum): 0.94 ± 0.11
CN(C)S(=O)(=O)c1ccc(S(=O)(=O)N2CCC(n3c(=O)[nH]c4ccccc43)CC2)cc1  ATPase activity (ERCC2 (Homo sapiens, UniProt P18074); 100 µM): no effect
